Results pooled from the literature.
“And” joins repeats or separate records; there may be more than shown. ± gives the spread as reported.
Chain of UniProt O75676 (whole entry, looked up): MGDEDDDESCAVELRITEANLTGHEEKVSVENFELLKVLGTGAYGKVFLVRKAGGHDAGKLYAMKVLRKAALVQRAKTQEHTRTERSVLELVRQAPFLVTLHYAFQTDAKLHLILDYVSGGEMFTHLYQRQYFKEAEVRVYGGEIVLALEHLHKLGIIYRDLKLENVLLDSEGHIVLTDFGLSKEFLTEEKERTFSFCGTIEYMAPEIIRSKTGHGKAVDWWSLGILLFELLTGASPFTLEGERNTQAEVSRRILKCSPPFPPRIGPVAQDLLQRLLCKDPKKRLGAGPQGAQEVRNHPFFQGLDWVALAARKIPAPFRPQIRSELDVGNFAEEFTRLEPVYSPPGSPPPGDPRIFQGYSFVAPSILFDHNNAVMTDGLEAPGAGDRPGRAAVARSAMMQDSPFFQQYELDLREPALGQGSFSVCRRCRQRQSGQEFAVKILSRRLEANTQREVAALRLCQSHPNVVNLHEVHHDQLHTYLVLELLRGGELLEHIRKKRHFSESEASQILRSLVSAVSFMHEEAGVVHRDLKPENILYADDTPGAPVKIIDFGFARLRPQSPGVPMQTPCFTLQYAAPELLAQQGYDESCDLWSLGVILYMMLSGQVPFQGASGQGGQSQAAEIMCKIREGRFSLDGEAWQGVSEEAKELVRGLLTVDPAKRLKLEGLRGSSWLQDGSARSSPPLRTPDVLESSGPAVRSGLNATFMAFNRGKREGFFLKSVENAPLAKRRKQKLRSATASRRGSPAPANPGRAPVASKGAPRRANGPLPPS
Chain of UniProt P06239 (whole entry, looked up): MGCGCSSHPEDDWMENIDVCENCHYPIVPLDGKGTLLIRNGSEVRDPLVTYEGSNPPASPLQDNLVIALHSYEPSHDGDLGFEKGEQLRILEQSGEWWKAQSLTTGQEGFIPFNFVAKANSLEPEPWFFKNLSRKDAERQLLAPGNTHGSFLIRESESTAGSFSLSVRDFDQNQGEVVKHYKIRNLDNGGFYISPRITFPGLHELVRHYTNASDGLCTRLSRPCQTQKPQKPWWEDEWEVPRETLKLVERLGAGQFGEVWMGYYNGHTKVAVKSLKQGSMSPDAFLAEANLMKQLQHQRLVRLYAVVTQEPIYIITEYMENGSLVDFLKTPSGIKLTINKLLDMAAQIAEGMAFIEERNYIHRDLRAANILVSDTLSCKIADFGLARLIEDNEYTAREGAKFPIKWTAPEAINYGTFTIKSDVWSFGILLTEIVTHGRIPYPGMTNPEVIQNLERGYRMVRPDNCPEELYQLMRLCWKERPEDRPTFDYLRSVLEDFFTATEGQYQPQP
Chain of UniProt P07948 (whole entry, looked up): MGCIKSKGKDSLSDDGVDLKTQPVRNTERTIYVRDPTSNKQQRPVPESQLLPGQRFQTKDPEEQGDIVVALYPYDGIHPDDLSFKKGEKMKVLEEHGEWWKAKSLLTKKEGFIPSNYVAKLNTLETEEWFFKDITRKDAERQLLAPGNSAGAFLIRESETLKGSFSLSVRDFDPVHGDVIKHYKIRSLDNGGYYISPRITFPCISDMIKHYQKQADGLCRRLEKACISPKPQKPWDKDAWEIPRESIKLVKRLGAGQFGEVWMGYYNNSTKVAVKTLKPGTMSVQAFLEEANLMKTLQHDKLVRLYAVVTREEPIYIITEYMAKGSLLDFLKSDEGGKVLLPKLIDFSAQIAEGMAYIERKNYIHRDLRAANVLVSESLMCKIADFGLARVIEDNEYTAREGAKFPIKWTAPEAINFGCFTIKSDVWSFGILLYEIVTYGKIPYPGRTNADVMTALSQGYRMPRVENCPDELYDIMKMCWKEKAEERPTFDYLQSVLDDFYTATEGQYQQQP

SMILES	target or system	assay	system	conditions	how to read	measurement	result
CC(C)[C@H]1NC(=O)C[C@H]2/C=C/CCSSC[C@@H](NC1=O)C(=O)N[C@H](Cc1cccc3ccccc13)C(=O)NCC(=O)O2	Tyrosine-protein kinase Lyn, isoform B (LYN, Homo sapiens, UniProt P07948)			10 µM		inhibition	-0.436%
Cc1ccc(NS(=O)(=O)c2c(C(=O)N3CCCCCC3)c(C)n(C)c2C)c(Cl)c1	CV-1		African green monkey cells	0.412 µM, 60 (unit not given)		viability	97.4% and 95.9%
CN(C)[C@H]1C[C@@]23CC[C@@]4(O2)C(=CC[C@]2(C)[C@@H](c5ccc6ccncc6c5)CC[C@H]24)C=C3[C@@H](O)[C@@H]1O	Ribosomal protein S6 kinase alpha-4, N-terminal kinase domain (RPS6KA4, Homo sapiens, UniProt O75676)	ATP probe labelling, inhibitor, KiNativ profiling		1 µM		inhibition	1.3%
CS(C)(=O)=Nc1ccc(-c2ccc(-c3nc4cc(O[C@@H]5CO[C@H]6[C@@H]5OC[C@H]6O)[nH]c4cc3F)cc2)cc1	LCK (Homo sapiens, UniProt P06239)	enzyme activity, inhibitor		10 µM		inhibition	13%
CSCC[C@H](NC(=O)CNC(=O)[C@H](CCCCN)NC(=O)[C@H](CC(C)C)NC(=O)[C@@H]1CCCN1C(=O)[C@H](CO)NC(=O)[C@H](Cc1c[nH]cn1)NC(=O)[C@H](Cc1c[nH]c2ccccc12)NC(=O)[C@H](CCCNC(=N)N)NC(=O)[C@H](CC(C)C)NC(=O)[C@H](CCCNC(=N)N)NC(=O)[C@H](Cc1c[nH]c2ccccc12)NC(=O)[C@H](CS)NC(=O)CCCCCNC(=O)CN1CCN(CC(=O)O)CCN(CC(=O)O)CCN(CC(=O)O)CC1)C(=O)O [copper-64 labelled]		ex vivo biodistribution	BALB/c nude mice, bone	intravenous, dose not given, 2 h, Huh-7 tumour-bearing		tissue uptake	1.2 %ID/g
NC1CCN(C(=O)Oc2ccc(C3CCCC4(C3)OOC3(O4)C4CC5CC(C4)CC3C5)cc2)CC1 (racemic)			citrate buffer	0 h, anaerobic, with: 50 mM ferrous iron		parent remaining	100%
O=C1NC2(CC2)COc2ncc(F)cc2[C@H]2COCCN2c2ccn3ncc1c3n2			Sprague-Dawley rat, female, serum	oral, 5 mg/kg/day, 4 weeks daily, end of recovery period		potassium	3.99 ± 0.31 mmol/L
C=C/C=C/C[C@@H](C)[C@@H](O)[C@H]1C(=O)N[C@@H](CC)C(=O)N(C)CC(=O)N(C)[C@@H](CC(C)C)C(=O)N[C@@H](C(C)C)C(=O)N(C)[C@@H](CC(C)C)C(=O)N[C@@H](C)C(=O)N[C@H](C)C(=O)N(C)[C@@H](CC(C)C)C(=O)N(C)[C@@H](CC(C)C)C(=O)N(C)[C@@H](C(C)C)C(=O)N1C		radiotelemetry	Wistar Kyoto rats, male	ip, 0.5 mg/kg/day, over 28 days, gradual rise	reference: vehicle	mean arterial pressure increase	9 ± 2 mmHg
CSCC[C@H](N)C(=O)N[C@@H](C)C(=O)N[C@@H](Cc1c[nH]c2ccccc12)C(=O)N[C@@H](Cc1c[nH]cn1)C(=O)N[C@@H](CC(=O)O)C(=O)N[C@@H](CC(=O)O)C(=O)N[C@@H](CCC(=O)O)C(=O)N[C@@H](CCC(=O)O)C(=O)N[C@@H](Cc1ccccc1)C(=O)N[C@@H](C)C(=O)N[C@@H](CCCNC(=N)N)C(=O)N[C@@H](CCCNC(=N)N)C(=O)N[C@@H](CCCNC(=N)N)C(=O)N[C@@H](CCCNC(=N)N)C(=O)NCCCCCC(=O)NCCCCC(NC(=O)CCCCCNC(=O)[C@H](CCCNC(=N)N)NC(=O)[C@H](CCCNC(=N)N)NC(=O)[C@H](CCCNC(=N)N)NC(=O)[C@H](CCCNC(=N)N)NC(=O)[C@H](C)NC(=O)[C@H](Cc1ccccc1)NC(=O)[C@H](CCC(=O)O)NC(=O)[C@H](CCC(=O)O)NC(=O)[C@H](CC(=O)O)NC(=O)[C@H](CC(=O)O)NC(=O)[C@H](Cc1c[nH]cn1)NC(=O)[C@H](Cc1c[nH]c2ccccc12)NC(=O)[C@H](C)NC(=O)[C@@H](N)CCSC)C(=O)NCCCCC(NC(=O)C(CCCCNC(=O)CCCCCNC(=O)[C@H](CCCNC(=N)N)NC(=O)[C@H](CCCNC(=N)N)NC(=O)[C@H](CCCNC(=N)N)NC(=O)[C@H](CCCNC(=N)N)NC(=O)[C@H](C)NC(=O)[C@H](Cc1ccccc1)NC(=O)[C@H](CCC(=O)O)NC(=O)[C@H](CCC(=O)O)NC(=O)[C@H](CC(=O)O)NC(=O)[C@H](CC(=O)O)NC(=O)[C@H](Cc1c[nH]cn1)NC(=O)[C@H](Cc1c[nH]c2ccccc12)NC(=O)[C@H](C)NC(=O)[C@@H](N)CCSC)NC(=O)CCCCCNC(=O)[C@H](CCCNC(=N)N)NC(=O)[C@H](CCCNC(=N)N)NC(=O)[C@H](CCCNC(=N)N)NC(=O)[C@H](CCCNC(=N)N)NC(=O)[C@H](C)NC(=O)[C@H](Cc1ccccc1)NC(=O)[C@H](CCC(=O)O)NC(=O)[C@H](CCC(=O)O)NC(=O)[C@H](CC(=O)O)NC(=O)[C@H](CC(=O)O)NC(=O)[C@H](Cc1c[nH]cn1)NC(=O)[C@H](Cc1c[nH]c2ccccc12)NC(=O)[C@H](C)NC(=O)[C@@H](N)CCSC)C(N)=O (stereo partly drawn)			C57BL/6 mouse female, lungs	dose not given, 6 h	reference: total	tissue distribution	1.47% and 1.67% and 1.78%
CCN1CC2(COC)C(O)CC(OC)C34C5CC6(O)C(OC)C(O)C(O)(C5C6OC(=O)c5ccccc5)C(C(OC)C23)C14 (stereo not drawn)			Sprague-Dawley rat, plasma	oral, dose not given, with NADES in PCW extract		MRT(0-t)	5.19 ± 0.413 h
CC(C)(C)C(=O)OCOP(=O)(OCOC(=O)C(C)(C)C)C1CCCN(O)C1=O (stereo not drawn)	SNB-75					GI50	1430 nM
C#Cc1c(F)ccc2cc(O)cc(-c3ncc4c(N5CC6CCC(C5)N6C(=O)OC(C)OC(=O)C5CCOC5)nc(OC[C@@]56CCCN5C[C@H](F)C6)nc4c3F)c12 (stereo partly drawn)		measured: prodrug	mouse whole blood	1 µM		t1/2	2.48 min
Cc1nnc(-c2ccc(CC(=O)NCCCC[C@H](NC(=O)c3ccc(OCc4ccc(B(O)O)cc4)c(-c4nc5ccccc5c(=O)[nH]4)c3)C(=O)NCC(=O)NCC(=O)NCC(=O)N[C@@H](Cc3ccccc3)C(=O)N[C@@H](Cc3ccccc3)C(=O)O)cc2)nn1		UPLC-MS/MS	human serum	100 µM, 4 h, 37 °C		remaining compound	69.8%
COc1ccccc1-c1n[nH]c2nc(NC3CCN(C(=O)Cc4ccc(F)cc4F)CC3)ncc12		bead binding, competition bead pull-down, measured: LMJF.36.6910	Leishmania donovani axenic amastigote extract	10 µM	reference: vehicle	relative abundance	1.17
CC(CCC(=O)NCC(=O)O)C1CCC2C3CCC4CC(OC5OC(C(=O)O)C(O)C(O)C5O)CCC4(C)C3CC(O)C12C (stereo not drawn)			human women	dose not given, SLCO1B1 *14/*35		plasma concentration	32.3 ng/mL
C[C@H](O)[C@@H](NC(=O)[C@H]1CCCN1C(=O)[C@@H](CCCCN)NC(=O)[C@@H](CO)NC(=O)[C@@H](Cc1ccc(O)cc1)NC(=O)[C@@H](CC(N)=O)NC(=O)CCOCCOCCOCCNC(=O)CN1CCN(CC(=O)O)CCN(CC(=O)O)CCN(CC(=O)O)CC1)C(=O)N[C@H](CC(=O)O)C(=O)N[C@H](CCCNC(=N)N)C(=O)N[C@H](CCC(N)=O)C(=O)N[C@H](Cc1ccc(O)cc1)C(=O)N[C@H](Cc1c[nH]cn1)C(=O)N[C@H](Cc1ccccc1)C(N)=O [copper-64 labelled]			C57BL/6J mice, liver	intravenous, 1.85 MBq, 0.3333 h, radiolabelled		tissue uptake	1.4 ± 0.19 %ID/g
Cn1nc(NS(C)(=O)=O)c2c(Cl)ccc(-n3c([C@H](Cc4cc(F)cc(F)c4)NC(=O)Cn4nc(C(F)F)c5c4C(F)(F)[C@@H]4C[C@H]54)nc4nc(OCCC(F)(F)F)ccc4c3=O)c21			human, plasma	oral, 125 mg single dose, powder in bottle, geometric mean		Cmax	107 ng/mL
CN1Cc2cc(Cl)ccc2-n2c(nnc2C2CCN(c3cccc([18F])n3)CC2)C1			C57BL/6 mouse male, liver	intravenous, 3.7 MBq, 15 min		tissue uptake	21.2 ± 5.26 %ID/g
Cc1nc2cccc(OCC(C)(C)C(=O)NC(C)C)c2c(N)c1C(=O)[O-].[Na+]	Escherichia coli	reverse mutation, preincubation	WP2 uvrA	0.80 mg/plate, without S9		revertant colonies	27 ± 2 colonies/plate
CCCC[C@H]1C(=O)N(C)[C@@H](CCCC)C(=O)N[C@@H](CCCNC(=O)CN2CCN(CC(=O)O)CCN(CC(=O)O)CCN(CC(=O)O)CC2)C(=O)N[C@H](C(=O)NCC(N)=O)CSCC(=O)N[C@@H](Cc2ccc(O)cc2)C(=O)N(C)[C@@H](C)C(=O)N[C@@H](CC(N)=O)C(=O)N2CCC[C@H]2C(=O)N[C@@H](Cc2c[nH]cn2)C(=O)N[C@@H](CC(C)C)C(=O)N(C)CC(=O)N[C@@H](Cc2c[nH]c3ccccc23)C(=O)N[C@@H](CO)C(=O)N[C@@H](Cc2c[nH]c3ccccc23)C(=O)N1C [gallium-68 labelled]			NOD/SCID mice with CHO-hPD-L1 xenograft, lung	120 min post injection		tissue uptake	5.93 ± 2.2 %ID/g
CC[C@H](C)[C@H](NC(=O)[C@H](CCCCN)NC(=O)CNC(=O)[C@H](CC(C)C)NC(=O)[C@H](Cc1ccccc1)NC(=O)[C@H](CCCCN)NC(=O)[C@H](CO)NC(=O)[C@H](Cc1ccccc1)NC(=O)[C@H](Cc1c[nH]c2ccccc12)NC(=O)[C@H](CCC(N)=O)NC(=O)[C@@H](NC(=O)[C@H](Cc1ccccc1)NC(=O)CCCCCNC(=O)CN1CCN(CC(=O)O)CCN(CC(=O)O)CCN(CC(=O)O)CC1)C(C)C)C(=O)N[C@@H](CCC(=O)O)C(=O)N1CCC[C@H]1C(=O)N[C@@H](CC(=O)O)C(=O)N[C@H](C(=O)N[C@@H](CO)C(=O)N[C@@H](CCC(N)=O)C(=O)N[C@H](C(=O)N[C@@H](CCC(N)=O)C(=O)N[C@@H](CC(=O)O)C(=O)N1CCC[C@H]1C(=O)N[C@@H](CC(N)=O)C(=O)N[C@@H](CC(=O)O)C(=O)N[C@@H](CCC(N)=O)C(=O)N[C@@H](Cc1ccc(O)cc1)C(=O)N[C@@H](CCC(=O)O)C(=O)N1CCC[C@H]1C(=O)N[C@@H](Cc1ccccc1)C(=O)O)C(C)C)C(C)C [copper-64 labelled]		dynamic PET	mouse both sexes, CT26 tumour, untreated, tumour	intravenous, 100 µCi/mouse, 810 s		SUVmean	0.72 SUV

Repeated from above:
SMILES	target or system	assay	system	conditions	how to read	measurement	result
CCCC[C@H]1C(=O)N(C)[C@@H](CCCC)C(=O)N[C@@H](CCCNC(=O)CN2CCN(CC(=O)O)CCN(CC(=O)O)CCN(CC(=O)O)CC2)C(=O)N[C@H](C(=O)NCC(N)=O)CSCC(=O)N[C@@H](Cc2ccc(O)cc2)C(=O)N(C)[C@@H](C)C(=O)N[C@@H](CC(N)=O)C(=O)N2CCC[C@H]2C(=O)N[C@@H](Cc2c[nH]cn2)C(=O)N[C@@H](CC(C)C)C(=O)N(C)CC(=O)N[C@@H](Cc2c[nH]c3ccccc23)C(=O)N[C@@H](CO)C(=O)N[C@@H](Cc2c[nH]c3ccccc23)C(=O)N1C [gallium-68 labelled]			NOD/SCID mice with CHO-hPD-L1 xenograft, lung	120 min post injection		tissue uptake	5.93 ± 2.2 %ID/g
